# Measured values collected from several papers.
# Lines come from different studies, so protocols differ. Numbers after ± are the reported error.
# CSNK1A1/CRBN: Cereblon/Casein kinase I alpha (CSNK1A1/CRBN, Homo sapiens, UniProt P48729+Q96SW2)
# Sequence of UniProt Q96SW2 (whole entry, looked up): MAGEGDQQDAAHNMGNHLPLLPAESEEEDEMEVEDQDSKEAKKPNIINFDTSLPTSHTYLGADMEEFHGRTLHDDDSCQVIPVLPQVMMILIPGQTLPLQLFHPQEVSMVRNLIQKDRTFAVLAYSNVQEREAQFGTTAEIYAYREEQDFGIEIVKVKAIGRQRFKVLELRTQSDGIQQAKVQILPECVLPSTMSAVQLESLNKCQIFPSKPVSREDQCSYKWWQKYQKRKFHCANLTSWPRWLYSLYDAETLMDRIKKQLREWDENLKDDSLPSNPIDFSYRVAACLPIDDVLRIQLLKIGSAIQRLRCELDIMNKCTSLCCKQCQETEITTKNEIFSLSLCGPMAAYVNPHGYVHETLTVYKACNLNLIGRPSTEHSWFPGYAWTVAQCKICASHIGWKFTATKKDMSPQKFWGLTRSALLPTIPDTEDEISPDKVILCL
# Sequence of UniProt P48729 (whole entry, looked up): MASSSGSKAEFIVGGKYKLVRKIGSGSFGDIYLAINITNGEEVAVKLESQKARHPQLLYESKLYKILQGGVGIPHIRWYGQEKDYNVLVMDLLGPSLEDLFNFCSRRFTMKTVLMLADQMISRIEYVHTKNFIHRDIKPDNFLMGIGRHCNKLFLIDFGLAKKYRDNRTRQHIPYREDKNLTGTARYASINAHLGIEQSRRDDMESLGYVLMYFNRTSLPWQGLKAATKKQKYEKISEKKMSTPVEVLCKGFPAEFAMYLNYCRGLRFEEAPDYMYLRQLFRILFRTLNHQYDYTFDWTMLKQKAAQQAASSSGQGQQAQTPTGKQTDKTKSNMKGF
# Sequence of UniProt P29323 (whole entry, looked up): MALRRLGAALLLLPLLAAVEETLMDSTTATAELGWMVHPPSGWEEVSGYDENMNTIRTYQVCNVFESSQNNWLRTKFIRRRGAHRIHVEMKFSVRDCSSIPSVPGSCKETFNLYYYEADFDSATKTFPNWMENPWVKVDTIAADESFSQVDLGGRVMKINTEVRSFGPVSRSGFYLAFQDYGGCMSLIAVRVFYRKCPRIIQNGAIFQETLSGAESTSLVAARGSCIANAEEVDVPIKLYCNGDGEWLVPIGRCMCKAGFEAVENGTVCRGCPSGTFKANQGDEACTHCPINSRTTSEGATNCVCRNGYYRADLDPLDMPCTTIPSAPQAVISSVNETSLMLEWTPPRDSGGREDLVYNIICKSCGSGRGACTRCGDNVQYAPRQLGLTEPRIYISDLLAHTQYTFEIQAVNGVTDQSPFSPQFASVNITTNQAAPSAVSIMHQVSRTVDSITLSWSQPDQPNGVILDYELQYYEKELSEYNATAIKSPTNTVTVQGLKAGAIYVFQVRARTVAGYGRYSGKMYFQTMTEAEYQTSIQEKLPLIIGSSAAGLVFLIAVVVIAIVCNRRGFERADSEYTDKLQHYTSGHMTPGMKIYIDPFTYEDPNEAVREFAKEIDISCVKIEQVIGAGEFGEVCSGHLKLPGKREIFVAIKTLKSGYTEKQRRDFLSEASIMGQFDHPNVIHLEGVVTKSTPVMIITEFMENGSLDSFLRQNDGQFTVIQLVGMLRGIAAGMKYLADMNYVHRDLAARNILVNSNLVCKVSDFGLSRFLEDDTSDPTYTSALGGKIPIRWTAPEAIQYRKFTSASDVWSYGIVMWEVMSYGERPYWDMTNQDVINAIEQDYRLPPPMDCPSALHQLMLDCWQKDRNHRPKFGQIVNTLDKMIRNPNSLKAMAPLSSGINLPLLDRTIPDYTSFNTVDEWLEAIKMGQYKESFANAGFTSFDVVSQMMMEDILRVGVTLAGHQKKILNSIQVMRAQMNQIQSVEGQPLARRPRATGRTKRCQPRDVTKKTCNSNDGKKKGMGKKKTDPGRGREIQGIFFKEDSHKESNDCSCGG
# Sequence of UniProt Q16539 (whole entry, looked up): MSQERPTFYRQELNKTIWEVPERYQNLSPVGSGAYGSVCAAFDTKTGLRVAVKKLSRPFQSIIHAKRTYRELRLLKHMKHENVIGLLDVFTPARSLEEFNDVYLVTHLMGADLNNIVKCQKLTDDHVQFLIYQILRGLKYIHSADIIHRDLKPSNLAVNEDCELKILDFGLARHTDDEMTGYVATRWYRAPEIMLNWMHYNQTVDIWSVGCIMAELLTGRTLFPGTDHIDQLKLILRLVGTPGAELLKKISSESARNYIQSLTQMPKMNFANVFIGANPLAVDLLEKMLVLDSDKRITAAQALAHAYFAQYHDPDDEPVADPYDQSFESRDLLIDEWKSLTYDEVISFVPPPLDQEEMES
# Sequence of UniProt O75874 (whole entry, unmodified, looked up): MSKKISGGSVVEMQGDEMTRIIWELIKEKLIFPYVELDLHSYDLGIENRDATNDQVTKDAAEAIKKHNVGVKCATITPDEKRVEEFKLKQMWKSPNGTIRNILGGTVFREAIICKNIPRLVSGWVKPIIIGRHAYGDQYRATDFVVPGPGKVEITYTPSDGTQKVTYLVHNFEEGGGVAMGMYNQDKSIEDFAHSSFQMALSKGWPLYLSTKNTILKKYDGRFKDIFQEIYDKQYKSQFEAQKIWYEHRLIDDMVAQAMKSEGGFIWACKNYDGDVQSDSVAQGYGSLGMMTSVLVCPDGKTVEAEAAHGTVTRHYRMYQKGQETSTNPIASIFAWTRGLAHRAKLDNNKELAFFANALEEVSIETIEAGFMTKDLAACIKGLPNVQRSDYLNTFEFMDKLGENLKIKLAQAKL
# Sequence of UniProt Q03431 (whole entry, looked up): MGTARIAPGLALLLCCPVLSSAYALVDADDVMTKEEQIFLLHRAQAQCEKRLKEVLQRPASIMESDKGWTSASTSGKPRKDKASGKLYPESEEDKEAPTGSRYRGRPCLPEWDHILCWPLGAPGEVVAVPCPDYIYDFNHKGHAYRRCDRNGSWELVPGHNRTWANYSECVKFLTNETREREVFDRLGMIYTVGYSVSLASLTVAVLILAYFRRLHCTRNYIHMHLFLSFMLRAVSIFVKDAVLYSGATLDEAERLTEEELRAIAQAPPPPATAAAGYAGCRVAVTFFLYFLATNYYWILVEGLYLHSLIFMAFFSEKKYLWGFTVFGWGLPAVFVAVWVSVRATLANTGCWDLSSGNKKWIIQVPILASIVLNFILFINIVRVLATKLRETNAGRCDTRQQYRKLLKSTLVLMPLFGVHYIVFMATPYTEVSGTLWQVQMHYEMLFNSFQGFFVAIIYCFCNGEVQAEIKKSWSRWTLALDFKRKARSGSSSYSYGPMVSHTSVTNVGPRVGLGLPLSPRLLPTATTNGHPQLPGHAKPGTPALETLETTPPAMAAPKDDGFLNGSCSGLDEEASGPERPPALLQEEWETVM
# Sequence of UniProt Q16236 (whole entry, unmodified, looked up): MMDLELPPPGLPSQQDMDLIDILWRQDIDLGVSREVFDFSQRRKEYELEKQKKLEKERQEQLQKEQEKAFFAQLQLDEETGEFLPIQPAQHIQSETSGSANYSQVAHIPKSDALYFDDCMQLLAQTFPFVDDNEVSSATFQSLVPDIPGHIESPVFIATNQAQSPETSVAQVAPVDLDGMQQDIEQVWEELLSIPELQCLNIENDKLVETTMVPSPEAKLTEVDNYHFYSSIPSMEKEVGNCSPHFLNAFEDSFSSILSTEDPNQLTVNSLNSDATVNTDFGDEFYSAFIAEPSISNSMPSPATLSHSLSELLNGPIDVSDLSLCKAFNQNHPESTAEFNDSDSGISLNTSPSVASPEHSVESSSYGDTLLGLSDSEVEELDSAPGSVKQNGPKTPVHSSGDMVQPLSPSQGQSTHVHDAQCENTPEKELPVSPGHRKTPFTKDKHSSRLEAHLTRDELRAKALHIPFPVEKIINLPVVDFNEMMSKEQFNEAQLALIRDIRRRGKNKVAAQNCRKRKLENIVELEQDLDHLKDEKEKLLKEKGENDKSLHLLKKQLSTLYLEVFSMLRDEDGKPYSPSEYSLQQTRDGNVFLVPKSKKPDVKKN
# Sequence of UniProt P54764 (whole entry, looked up): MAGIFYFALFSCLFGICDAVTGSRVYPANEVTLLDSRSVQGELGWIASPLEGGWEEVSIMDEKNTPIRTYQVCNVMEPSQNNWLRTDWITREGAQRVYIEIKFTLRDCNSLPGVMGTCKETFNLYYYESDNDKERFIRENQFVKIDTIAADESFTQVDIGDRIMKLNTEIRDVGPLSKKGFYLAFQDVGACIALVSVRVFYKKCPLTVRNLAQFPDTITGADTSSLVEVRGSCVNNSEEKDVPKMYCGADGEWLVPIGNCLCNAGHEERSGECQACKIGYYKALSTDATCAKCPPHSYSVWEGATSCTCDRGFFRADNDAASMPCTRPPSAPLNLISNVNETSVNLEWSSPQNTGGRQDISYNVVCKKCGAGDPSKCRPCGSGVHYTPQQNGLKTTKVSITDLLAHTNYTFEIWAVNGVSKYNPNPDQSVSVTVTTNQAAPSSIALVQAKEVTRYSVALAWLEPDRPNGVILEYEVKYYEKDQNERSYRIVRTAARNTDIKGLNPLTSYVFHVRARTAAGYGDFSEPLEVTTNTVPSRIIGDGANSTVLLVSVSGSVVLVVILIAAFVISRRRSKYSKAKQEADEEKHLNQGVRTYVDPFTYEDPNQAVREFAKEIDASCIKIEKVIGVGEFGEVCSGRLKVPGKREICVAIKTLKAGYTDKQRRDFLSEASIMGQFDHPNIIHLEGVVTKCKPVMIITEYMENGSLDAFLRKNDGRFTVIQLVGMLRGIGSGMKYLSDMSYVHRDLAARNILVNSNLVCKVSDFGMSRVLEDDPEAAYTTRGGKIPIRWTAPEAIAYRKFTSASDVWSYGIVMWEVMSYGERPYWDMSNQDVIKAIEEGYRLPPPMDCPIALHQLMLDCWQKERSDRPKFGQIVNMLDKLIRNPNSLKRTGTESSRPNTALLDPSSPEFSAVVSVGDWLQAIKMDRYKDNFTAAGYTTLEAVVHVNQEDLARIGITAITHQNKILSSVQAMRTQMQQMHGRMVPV
SMILES,target,test,test system,conditions,endpoint,result
CNC(=O)C1CCN(c2cc(C)ccc2NC(=O)c2ccc(-c3cc(O)ccc3C)c(C)c2)CC1,"Ephrin type-A receptor 4 (EPHA4, Homo sapiens, UniProt P54764)","enzyme activity, inhibitor",,,Ki,0.005 µM
O=C(O)COc1ccc(-c2ccccc2)cc1Cl,"Nuclear factor erythroid 2-related factor 2, Neh1 domain (NFE2L2, Homo sapiens, UniProt Q16236)",binding,,,Kd,2800 µM
CC[C@H](C)[C@H](NC(=O)[C@H](CCC(=O)O)NC(=O)[C@H](CO)NC(=O)[C@@H](NC(=O)[C@@H](N)CO)C(C)C)C(=O)N[C@@H](CCC(N)=O)C(=O)N[C@@H](CC(C)C)C(=O)N[C@@H](CCSC)C(=O)N[C@@H](Cc1c[nH]cn1)C(=O)N[C@@H](CC(N)=O)C(=O)N[C@@H](CC(C)C)C(=O)NCC(=O)N[C@@H](CCCCN)C(=O)N[C@@H](Cc1c[nH]cn1)C(=O)N[C@@H](CC(C)C)C(=O)N[C@@H](CC(N)=O)C(=O)N[C@@H](CO)C(=O)N[C@@H](CCSC)C(=O)N[C@@H](CCC(=O)O)C(=O)N[C@@H](CCCNC(=N)N)C(=O)N[C@H](C(=O)N[C@@H](CCC(=O)O)C(=O)N[C@@H](Cc1c[nH]c2ccccc12)C(=O)N[C@@H](CC(C)C)C(=O)N[C@@H](CCCNC(=N)N)C(=O)N[C@@H](CCCCN)C(=O)N[C@@H](CCCCN)C(=O)N[C@@H](CC(C)C)C(=O)N[C@@H](CCC(N)=O)C(=O)N[C@@H](CC(=O)O)C(=O)N[C@H](C(=O)N[C@@H](Cc1c[nH]cn1)C(=O)N[C@@H](CC(N)=O)C(=O)N[C@@H](Cc1ccccc1)C(=O)N[C@@H](CCCCNC(=O)c1ccc2c(c1)C1(OC2=O)c2ccc(N(C)C)cc2Oc2cc(N(C)C)ccc21)C(N)=O)C(C)C)C(C)C,"Parathyroid hormone/parathyroid hormone-related peptide receptor (PTH1R, Homo sapiens, UniProt Q03431)","binding, NanoBRET kinetic binding",cells,"pH 7.5, together with: TMR-labelled peptide tracer",Kd,0.01 ± 0.003 µM
CN1CCN(C)[C@H](CCN2CC[C@H](c3ccc(F)cc3)C2)C1,"Isocitrate dehydrogenase [NADP] cytoplasmic (IDH1, Homo sapiens, UniProt O75874, R132H)",,,,Kd,14.1 µM
O=c1c2ccccc2ncn1-c1ccccc1F,"Mitogen-activated protein kinase 14 (MAPK14, Homo sapiens, UniProt Q16539)","binding, MST",,,Kd,890 µM
O=C1CC[C@H](N2Cc3cc(-c4ccn5nccc5n4)ccc3C2=O)C(=O)N1,CSNK1A1/CRBN,degrader,MOLT-4 CSNK1A1-HiBiT,24 h,DC50,0.141 µM
Nc1ccn([C@@H]2O[C@H](COP(=O)(O)OP(=O)(O)O)[C@@H](O)[C@H]2O)c(=O)n1,"type 1 ribosome-inactivating protein (Momordica balsamina, UniProt D9J2T9)",surface plasmon resonance,,25 °C,Kd,0.11 µM
CNC(=O)C1CCN(c2cc(C)c(F)cc2NC(=O)c2ccc(-c3cc(O)ccc3C)c(C)c2)CC1,"Ephrin type-B receptor 2 (EPHB2, Homo sapiens, UniProt P29323)","cell-free assay, TR-FRET",,,Ki,0.0013 µM
N#Cc1cnn2ccc(-c3ccc4c(c3)CN([C@H]3CCC(=O)NC3=O)C4=O)nc12,CSNK1A1/CRBN,degrader,MOLT-4 CSNK1A1-HiBiT,24 h,DC50,0.406 µM

# Excerpt of the above:
SMILES,target,test,test system,conditions,endpoint,result
O=c1c2ccccc2ncn1-c1ccccc1F,"Mitogen-activated protein kinase 14 (MAPK14, Homo sapiens, UniProt Q16539)","binding, MST",,,Kd,890 µM
